Published values from different studies.
Sample: Caco-2

O=S(=O)(c1ccccc1)N1CCCCC1 — efflux ratio: 0.64
CCCCC(CC)CNC(=N)NC(=N)NCCC (centres unmarked) — efflux ratio (5 µM, 2 h): > 236
CCN(CC)CCN=S(=O)(c1ccccc1)N1CCCCC1 (centres unmarked) — efflux ratio: 1.5
NC(=O)c1c(F)ccc(OCc2nc3cc(Cl)cnc3s2)c1F — efflux ratio: 0.645
CCC/C(=C\C1=C(OC)C(=O)c2ccccc2C1=O)C(=O)NOC — efflux ratio: 0.88
COc1ccc(CC[C@@H](OC(=O)[C@@H]2CCCCN2C(=O)[C@H](c2cc(OC)c(OC)c(OC)c2)C2CCCCC2)c2cccc(OCC(=O)O)c2)cc1OC — efflux ratio: > 10
CCCCC(CC)CNC(=N)NC(=N)NCCCCCCCCNC(=N)NC(=N)NCC(CC)CCCC (centres unmarked) — efflux ratio (5 µM, 2 h): > 6.88
COC(=O)N[C@H]1CC[C@@H](Nc2cc(NCc3ccccc3F)n3ncc(C(C)C)c3n2)CC1 — efflux ratio (10 µM): ~1
COC(=O)c1ccc2c(c1)NC(=O)/C2=C(\Nc1ccc2c(c1)CCN2C(=O)CN1CCOCC1)c1ccccc1 — efflux ratio (2 µM, 2 h): ~2.6
Nc1ccc(-c2ccc3ncc4c(=O)[nH]c(=O)n(-c5cccc(C(F)(F)F)c5)c4c3n2)cn1 — efflux ratio: 22.7
CC(C)c1cnn2c(NCc3ccccc3)cc(N[C@@H](CO)[C@H](O)CO)nc12 — efflux ratio (10 µM): 12

Excerpt of the above:
CC(C)c1cnn2c(NCc3ccccc3)cc(N[C@@H](CO)[C@H](O)CO)nc12 — efflux ratio (10 µM): 12
